# Assay results gathered from unrelated publications.
# A part holds a random share of what one study measured. Positions count from the first letter of the parent shown.
# Chain of UniProt O96013 (whole entry, looked up): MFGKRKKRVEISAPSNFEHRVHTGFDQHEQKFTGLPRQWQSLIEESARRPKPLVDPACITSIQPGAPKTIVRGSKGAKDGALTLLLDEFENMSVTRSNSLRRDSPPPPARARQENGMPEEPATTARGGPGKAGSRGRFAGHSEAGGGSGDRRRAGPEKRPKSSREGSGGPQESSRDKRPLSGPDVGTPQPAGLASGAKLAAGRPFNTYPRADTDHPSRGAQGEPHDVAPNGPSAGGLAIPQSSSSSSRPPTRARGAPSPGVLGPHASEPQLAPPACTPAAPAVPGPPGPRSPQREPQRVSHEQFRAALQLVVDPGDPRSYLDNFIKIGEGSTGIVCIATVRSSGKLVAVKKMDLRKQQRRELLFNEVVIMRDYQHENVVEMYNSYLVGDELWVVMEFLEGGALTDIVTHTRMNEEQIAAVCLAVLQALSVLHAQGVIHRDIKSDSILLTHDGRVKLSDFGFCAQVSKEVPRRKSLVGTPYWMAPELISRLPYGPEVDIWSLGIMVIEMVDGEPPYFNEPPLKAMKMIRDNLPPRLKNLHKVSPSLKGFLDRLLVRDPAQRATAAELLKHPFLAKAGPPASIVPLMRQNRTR

# Sample 1
# Target: TAR DNA-binding protein 43, full length, His tag (TARDBP, Homo sapiens, UniProt Q13148, residues 1-414)
# Technique: RNA Bind-n-Seq
# Molecule type: RNA
# Sample: in vitro
# Concentration: 20 nM
# Setting: 6-mer, flanks averaged, single round
# Together with: 150 mM LiCl
# Reference: input library
# Direction: higher = stronger binding
Strand,6-mer enrichment (R)
GUAUGA,1.34
GGGUUA,1.09
CGCCAC,0.947
GGUCUG,1.01
CAUUUU,1.2
ACAUAC,0.841
UUGCAG,0.981
GUAACC,0.884

# Sample 2
# Target: Phosphate system positive regulatory protein PHO4, full length, GST-tagged (PHO4, Saccharomyces cerevisiae, UniProt P07270, residues 1-312)
# Technique: competition protein-binding microarray
# Molecule type: double-stranded DNA, one strand shown
# Sample: in vitro
# Concentration: 2 µM
# Setting: whole 60-bp probe, lowest competitor level
# Together with: Cbf1 competitor, 0.05 µM
# Direction: higher = stronger binding
# All sequences stand within: … GTCTTGATTCGCTTGACGCTGCTG
# Target sequence (chain): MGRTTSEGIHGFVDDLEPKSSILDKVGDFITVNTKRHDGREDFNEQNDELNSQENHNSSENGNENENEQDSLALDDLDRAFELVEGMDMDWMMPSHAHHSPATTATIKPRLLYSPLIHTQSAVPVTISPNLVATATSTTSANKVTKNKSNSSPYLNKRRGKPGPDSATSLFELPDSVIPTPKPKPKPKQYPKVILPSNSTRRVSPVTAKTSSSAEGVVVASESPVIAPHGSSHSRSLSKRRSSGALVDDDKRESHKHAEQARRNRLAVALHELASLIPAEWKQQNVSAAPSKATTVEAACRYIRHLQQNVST
Strand,fluorescence intensity [a.u.]
TGCGCAACAACTTGTCACGTGGGTGTATGTCTAGAA,17300
AAGGCCACTGTTTATATCGTGCGATGGCTGGCAGGG,6470
GTAGACGCAAACCATCACGTACTTCATTTGAGGTTC,5600
CGTCCTAGTGATTGTGGTGTGGGTGCCATGAGGAAG,8360
GAGCCGTCCCGCAATCACCTGTAATGGCCAGTTCCC,2800
TGAACAGAAACAAATCACATGTTTCCTTGGCAGAAT,10400
GGCCTTCAGGCTTTGCACGCTAGCACACACCTTGGC,6960
AGGTTTCGCCATAGCCATGTGCCTATATTAAATAGA,11600

# Sample 3
# Target: OGT, full length, His-tagged (human)
# Technique: phage display, sequencing
# Sample: in vitro
# Concentration: 1 µg OGT
# Setting: single substitutions, 15-mer displayed peptide, unchanged parent 16.7
# Reference: input library
# Direction: higher = stronger binding
# Starting sequence: peptide; NSEYMPQYQIIFAHQ
Substitution,fold enrichment [fold]
Y8D,0.142
P6N,1.36
I11F,14.6
Q15K,30.1
Q7V,4.6
I10E,0.744
Q9D,1.03
I11R,9.21

# Further values, each from its own experiment
SMILES,target,test,setting,endpoint,result
O=C(NCc1ncc(C(F)(F)F)cc1Cl)c1ccc2c(c1)C1(CCS(=O)(=O)CC1)[C@@H](C1CC1)N2S(=O)(=O)c1ccc(F)cc1,"Serine/threonine-protein kinase PAK 4 (PAK4, Homo sapiens, UniProt O96013)","cell-free assay, competition with immobilised ligand",1 µM,remaining binding,89%
